Published values collected from several papers.
Compare with care: the assays were run in different laboratories. Numbers after ± are the reported error.

| SMILES | test system | conditions | endpoint | result |
| --- | --- | --- | --- | --- |
| CC(=O)CC(c1ccccc1)c1c(O)c2ccccc2oc1=O (centres unmarked) | Sprague-Dawley rat, male | – | unbound intrinsic clearance | 16.8 mL/min/kg |
| CCCC[C@@H]1NC(=O)[C@H](Cc2ccc(O)cc2)NC(=O)[C@@H]2CCCN2C(=O)[C@H](CC(=O)O)NC(=O)[C@H](C)NC(=O)[C@H](Cc2ccccc2)NC(=O)[C@@H]2CSCCC(=O)N3CN(CN(C3)C(=O)CCSC[C@@H](C(=O)N[C@@H](CNC(=O)CCOCCOCCOCCOCCOCCOCCOCCOCCOCCOCCOCCOCCn3cc(CCC(=O)NCCC(=O)N(C)CC(=O)N(C)CC(=O)N(C)CC(=O)N(C)CC(=O)N(C)CC(=O)N(C)CC(=O)N(C)CC(=O)N(C)CC(=O)N(C)CC(=O)N(C)CC(=O)N[C@H]4CSCCC(=O)N5CN6CN(C5)C(=O)CCSC[C@H](NC(=O)[C@@H](CC(=O)O)NC(=O)[C@H](Cc5cccc7ccccc57)NC(=O)[C@@H]5CCCN5C4=O)C(=O)N[C@@H](CCSC)C(=O)N[C@@H](CCCCNC(=N)N)C(=O)N[C@@H](CC(=O)O)C(=O)N[C@@H](Cc4c[nH]c5ccccc45)C(=O)N[C@@H](CO)C(=O)N[C@@H]([C@@H](C)O)C(=O)N4CCC[C@H]4C(=O)N4C[C@H](O)C[C@H]4C(=O)N[C@@H](Cc4c[nH]c5ccccc45)C(=O)N[C@H](C(N)=O)CSCCC6=O)nn3)C(N)=O)NC1=O)C(=O)CCSC[C@H](NC(C)=O)C(=O)N[C@@H](CC(C)(C)C)C(=O)N1CCC[C@H]1C(=O)N[C@@H](CCC(=O)O)C(=O)N[C@H](C)C(=O)N1CCC[C@H]1C(=O)N[C@@H](Cc1ccc(O)cc1)C(=O)N2 | Sprague-Dawley rat | – | unbound clearance | 55 mL/min/kg |
| CCCCNC(=O)NS(=O)(=O)c1ccc(C)cc1 | Sprague-Dawley rat, male | – | unbound intrinsic clearance | 46.1 mL/min/kg |
| COCC(=O)N1CCC[C@H](C(=O)NCc2nc(-c3ccc(C#N)cc3)cs2)C1 | Sprague-Dawley rat, male, plasma | intravenous, 1 mg/kg | unbound hepatic CLint | 57 mL/min/kg |
| CCO[C@H]1CCN(Cc2c(OC)cc(C)c3[nH]ccc23)[C@H](c2ccc(C(=O)O)cc2)C1 | moderate hepatic impairment, plasma | oral, 200 mg single dose, median | unbound Tmax | 2.25 h |
| CCCC[C@@H]1NC(=O)[C@H](Cc2ccc(O)cc2)NC(=O)[C@@H]2CCCN2C(=O)[C@H](CC(=O)O)NC(=O)[C@H](C)NC(=O)[C@H](Cc2ccccc2)NC(=O)[C@@H]2CSCCC(=O)N3CN(CN(C3)C(=O)CCSC[C@@H](C(=O)N[C@@H](C)C(N)=O)NC1=O)C(=O)CCSC[C@H](NC(C)=O)C(=O)N[C@@H](CC(C)(C)C)C(=O)N1CCC[C@H]1C(=O)N[C@@H](CCC(=O)O)C(=O)N[C@H](CCCCNC(=O)CCc1cn(CCOCCOCCOCCOCCOCCOCCOCCOCCOCCOCCNC(=O)c3cc(C(=O)NCCOCCOCCOCCOCCOCCOCCOCCOCCOCCOCCn4cc(CCC(=O)NCCCC[C@H]5NC(=O)[C@H](CCC(=O)O)NC(=O)[C@@H]6CCCN6C(=O)[C@H](CC(C)(C)C)NC(=O)[C@@H](NC(C)=O)CSCCC(=O)N6CN7CN(C6)C(=O)CCSC[C@H](NC(=O)[C@H](Cc6ccc(O)cc6)NC(=O)[C@@H]6CCCN6C5=O)C(=O)N[C@@H](Cc5ccccc5)C(=O)N[C@@H](C)C(=O)N[C@@H](CC(=O)O)C(=O)N5CCC[C@H]5C(=O)N[C@@H](Cc5ccc(O)cc5)C(=O)N[C@@H](CCCC)C(=O)N[C@H](C(=O)N[C@@H](C)C(N)=O)CSCCC7=O)nn4)cc(C(=O)NCCOCCOCCOCCOCCOCCOCCOCCOCCOCCOCCn4cc(CCC(=O)N[C@H]5CSCCC(=O)N6CN7CN(C6)C(=O)CCSC[C@H](NC(=O)[C@@H](CC(=O)O)NC(=O)[C@H](Cc6cccc8ccccc68)NC(=O)[C@@H]6CCCN6C5=O)C(=O)N[C@@H](CCSC)C(=O)N[C@@H](CCCCNC(=N)N)C(=O)N[C@@H](CC(=O)O)C(=O)N[C@@H](Cc5c[nH]c6ccccc56)C(=O)N[C@@H](CO)C(=O)N[C@@H]([C@@H](C)O)C(=O)N5CCC[C@H]5C(=O)N5C[C@H](O)C[C@H]5C(=O)N[C@@H](Cc5c[nH]c6ccccc56)C(=O)N[C@H](C(N)=O)CSCCC7=O)nn4)c3)nn1)C(=O)N1CCC[C@H]1C(=O)N[C@@H](Cc1ccc(O)cc1)C(=O)N2 | Sprague-Dawley rat | – | unbound Vdss | 5.3 L/kg |
| COc1cc(F)cc2c(N3CCN4c5c(F)cccc5OC[C@@H]4C3)c(C#N)nnc12 (single isomer, unassigned) | rat, plasma | – | unbound fraction | 0.03 |
| CCCC[C@@H]1NC(=O)[C@H](Cc2ccc(O)cc2)NC(=O)[C@@H]2CCCN2C(=O)[C@H](CC(=O)O)NC(=O)[C@H](C)NC(=O)[C@H](Cc2ccccc2)NC(=O)[C@@H]2CSCCC(=O)N3CN(CN(C3)C(=O)CCSC[C@@H](C(=O)N[C@@H](C)C(N)=O)NC1=O)C(=O)CCSC[C@H](NC(C)=O)C(=O)N[C@@H](CC(C)(C)C)C(=O)N1CCC[C@H]1C(=O)N[C@@H](CCC(=O)O)C(=O)N[C@H](CCCCNC(=O)CCc1cn(CCOCCOCCOCCOCCOCCOCCOCCOCCOCCOCCNC(=O)CCOCCN(CCOCCC(=O)NCCOCCOCCOCCOCCOCCOCCOCCOCCOCCOCCn3cc(CCC(=O)NCCCC[C@H]4NC(=O)[C@H](CCC(=O)O)NC(=O)[C@@H]5CCCN5C(=O)[C@H](CC(C)(C)C)NC(=O)[C@@H](NC(C)=O)CSCCC(=O)N5CN6CN(C5)C(=O)CCSC[C@H](NC(=O)[C@H](Cc5ccc(O)cc5)NC(=O)[C@@H]5CCCN5C4=O)C(=O)N[C@@H](Cc4ccccc4)C(=O)N[C@@H](C)C(=O)N[C@@H](CC(=O)O)C(=O)N4CCC[C@H]4C(=O)N[C@@H](Cc4ccc(O)cc4)C(=O)N[C@@H](CCCC)C(=O)N[C@H](C(=O)N[C@@H](C)C(N)=O)CSCCC6=O)nn3)CCOCCC(=O)NCCOCCOCCOCCOCCOCCOCCOCCOCCOCCOCCn3cc(CCC(=O)N[C@H]4CSCCC(=O)N5CN6CN(C5)C(=O)CCSC[C@H](NC(=O)[C@@H](CC(=O)O)NC(=O)[C@H](Cc5cccc7ccccc57)NC(=O)[C@@H]5CCCN5C4=O)C(=O)N[C@@H](CCSC)C(=O)N[C@@H](CCCCNC(=N)N)C(=O)N[C@@H](CC(=O)O)C(=O)N[C@@H](Cc4c[nH]c5ccccc45)C(=O)N[C@@H](CO)C(=O)N[C@@H]([C@@H](C)O)C(=O)N4CCC[C@H]4C(=O)N4C[C@H](O)C[C@H]4C(=O)N[C@@H](Cc4c[nH]c5ccccc45)C(=O)N[C@H](C(N)=O)CSCCC6=O)nn3)nn1)C(=O)N1CCC[C@H]1C(=O)N[C@@H](Cc1ccc(O)cc1)C(=O)N2 | Sprague-Dawley rat | – | unbound Vdss | 1.8 L/kg |
| CCONC(=O)N1CCC[C@H](C(=O)NCc2nc(-c3ccc(C#N)cc3)cs2)C1 | Sprague-Dawley rat, male, plasma | intravenous, 1 mg/kg | unbound hepatic CLint | 150 mL/min/kg |
| Cc1c(Br)cc(NC(=O)C(c2ccccc2)S(=O)(=O)O)cc1Br (centres unmarked) | Sprague-Dawley rats, plasma | oral, 30 mg/kg | unbound Cmax | < 43 nM |
| CCCC[C@@H]1NC(=O)[C@H](Cc2ccc(O)cc2)NC(=O)[C@@H]2CCCN2C(=O)[C@H](CC(=O)O)NC(=O)[C@H](C)NC(=O)[C@H](Cc2ccccc2)NC(=O)[C@@H]2CSCCC(=O)N3CN(CN(C3)C(=O)CCSC[C@@H](C(=O)N[C@@H](C)C(N)=O)NC1=O)C(=O)CCSC[C@H](NC(C)=O)C(=O)N[C@@H](CC(C)(C)C)C(=O)N1CCC[C@H]1C(=O)N[C@@H](CCC(=O)O)C(=O)N[C@H](CCCCNC(=O)CCc1cn(CCOCCOCCOCCOCCOCCC(=O)N[C@H]3CSCCC(=O)N4CN5CN(C4)C(=O)CCSC[C@H](NC(=O)[C@@H](CC(=O)O)NC(=O)[C@H](Cc4cccc6ccccc46)NC(=O)[C@@H]4CCCN4C3=O)C(=O)N[C@@H](CCSC)C(=O)N[C@@H](CCCCNC(=N)N)C(=O)N[C@@H](CC(=O)O)C(=O)N[C@@H](Cc3c[nH]c4ccccc34)C(=O)N[C@@H](CO)C(=O)N[C@@H]([C@@H](C)O)C(=O)N3CCC[C@H]3C(=O)N3C[C@H](O)C[C@H]3C(=O)N[C@@H](Cc3c[nH]c4ccccc34)C(=O)N[C@H](C(N)=O)CSCCC5=O)nn1)C(=O)N1CCC[C@H]1C(=O)N[C@@H](Cc1ccc(O)cc1)C(=O)N2 | Sprague-Dawley rat | – | unbound clearance | 50 mL/min/kg |
| COCC(=O)N1CCC[C@H](C(=O)NCc2nc(-c3ccccc3)cs2)C1 | Sprague-Dawley rat, male, plasma | oral, 3 mg/kg | unbound AUC | 2.1 µM·h |
| CN(C)C(=O)c1cc2cnc(Nc3ccc(N4CCNCC4)cn3)nc2n1C1CCCC1 | Sprague-Dawley rat male, plasma | intraperitoneal, 100 mg/kg | unbound Cmax | 2820 ng/mL |
| CC(C)(N)COCC(=O)N1CCC[C@H](C(=O)NCc2nc(-c3ccc(C(F)(F)F)cc3)cs2)C1 | Sprague-Dawley rat, male, plasma | intravenous, 1 mg/kg | unbound hepatic CLint | 270 mL/min/kg |
| O=C(c1ccc(C#Cc2cccc(F)c2)nc1)N1CCC(O)CC1 | rats | i.p., 56.6 mg/kg, 2 h | unbound brain concentration | 1110 ± 34.1 nM |
| CCOCC(=O)N1CCC[C@H](C(=O)NCc2nc(-c3ccc(C)nc3)cs2)C1 | Sprague-Dawley rat, male, plasma | oral, 3 mg/kg | unbound AUC | 2.2 µM·h |
| O=C(O)Cc1ccccc1Nc1c(Cl)cccc1Cl | Sprague-Dawley rat, male | – | unbound intrinsic clearance | 5230 mL/min/kg |

A few entries again:
| SMILES | test system | conditions | endpoint | result |
| --- | --- | --- | --- | --- |
| COc1cc(F)cc2c(N3CCN4c5c(F)cccc5OC[C@@H]4C3)c(C#N)nnc12 (single isomer, unassigned) | rat, plasma | – | unbound fraction | 0.03 |
| CC(C)(N)COCC(=O)N1CCC[C@H](C(=O)NCc2nc(-c3ccc(C(F)(F)F)cc3)cs2)C1 | Sprague-Dawley rat, male, plasma | intravenous, 1 mg/kg | unbound hepatic CLint | 270 mL/min/kg |
